{"data": "Results collected from several papers", "note": "Compare with care: the assays were run in different laboratories."}
{"Compound": "Cc1cc(C)c(CNC(=O)c2cc(Cl)c3c(c2C)O[C@@](C)([C@H]2CC[C@H](N(C)C)CC2)O3)c(=O)[nH]1", "system": "relapsed/refractory ATLL patients", "conditions": "dose not given, modified ATLL criteria 2009", "quantity": "objective response rate (CR+CRu+PR)", "value": "64%"}
{"Compound": "CCCc1cc(C)[nH]c(=O)c1CNC(=O)c1cc(-c2ccc(N3CCN(C(C)C)CC3)nc2)cc2c1cnn2C(C)C", "tested on": "OCI-Ly1", "conditions": "0.1 µM, 120 h", "quantity": "viability", "value": "120%"}
{"Compound": "C=CC(=O)Nc1cc(Nc2ncc(C(=O)OC(C)C)c(-c3cn(C)c4ccccc34)n2)c(OC)cc1N(C)CCN(C)C", "test": "BICR, RECIST", "system": "EGFR-mutant NSCLC patients, prior platinum chemotherapy", "conditions": "oral, 160 mg once daily", "quantity": "objective response rate", "value": "28%"}
{"Compound": "COc1ccc([C@@H](O)c2cc(-c3ncnc4cc(N5CCOCC5)ccc34)c(F)cc2Cl)nn1", "test": "RECIST version 1.1", "system": "patients, advanced solid tumours", "conditions": "250 mg twice daily, added: avelumab", "how to read": "reference: patients", "quantity": "objective response rate", "value": "0%"}
{"Compound": "CCN(Cc1nc2c(N)nc3cc(-c4cc[nH]n4)ccc3c2[nH]1)C(C)=O", "test": "RECIST v1.1", "system": "advanced solid tumour patients", "conditions": "dose not given, monotherapy arm", "quantity": "objective response rate", "value": "5%"}
{"Compound": "NC(=O)C1CCCc2c1[nH]c1ccc(Cl)cc21 (racemic)", "tested on": "OCI-Ly1", "conditions": "1 µM, 120 h", "quantity": "viability", "value": "137%"}
{"Compound": "COCCOc1cnc2ccn([C@H](C)c3nnc4c(F)cc(-c5cnn(C)c5)cn34)c(=O)c2c1", "system": "MET-amplified advanced solid tumour patients", "conditions": "dose not given", "quantity": "objective response rate", "value": "29.6%"}
{"Compound": "CN[C@@H](C)C(=O)N[C@H]1CN(S(=O)(=O)c2cccc(S(=O)(=O)N3CC[C@H]4CC[C@@H](C(=O)NC(c5ccccc5)c5ccccc5)N4C(=O)[C@@H](NC(=O)[C@H](C)NC)C3)c2)CC[C@H]2CC[C@@H](C(=O)NC(c3ccccc3)c3ccccc3)N2C1=O", "test": "RECIST 1.1", "system": "advanced pancreatic cancer patients", "conditions": "dose not given, prior therapy, added: AG", "quantity": "objective response rate", "value": "16.7%"}
{"Compound": "COc1c(OCCCN2CCOCC2)ccc2c1N=C(NC(=O)c1cnc(N)nc1)N1CCN=C21", "system": "relapsed iNHL patients", "conditions": "dose not given", "quantity": "objective response rate", "value": "74.8%"}
{"Compound": "COc1cc2cc(-c3ccc(CC(=O)Nc4cc(C(C)(C)C(F)(F)F)no4)cn3)cnc2cc1OC", "test": "RECIST v1.1", "system": "RET-altered advanced solid tumour patients", "conditions": "oral, 40 mg once daily, phase I", "quantity": "objective response rate", "value": "33%"}
{"note": "Excerpt of the above:"}
{"Compound": "C=CC(=O)Nc1cc(Nc2ncc(C(=O)OC(C)C)c(-c3cn(C)c4ccccc34)n2)c(OC)cc1N(C)CCN(C)C", "test": "BICR, RECIST", "system": "EGFR-mutant NSCLC patients, prior platinum chemotherapy", "conditions": "oral, 160 mg once daily", "quantity": "objective response rate", "value": "28%"}
